Assay results pooled from the literature.
Numbered parts are unrelated; each lists some results of a single study. Substitutions count along the parent as printed.

Block 1 — method: DHFR PCA, deep sequencing; matrix: yeast; with: (+)-ABA 4.8 µM; relative to: wild-type fitted maximum; reading: higher = stronger binding
Target: ABI1, truncated, D143A, DHFR fusion (Arabidopsis thaliana)
Setting: methotrexate growth selection, single substitutions
Starting sequence: PYL1, truncated, DHFR fusion (Arabidopsis thaliana); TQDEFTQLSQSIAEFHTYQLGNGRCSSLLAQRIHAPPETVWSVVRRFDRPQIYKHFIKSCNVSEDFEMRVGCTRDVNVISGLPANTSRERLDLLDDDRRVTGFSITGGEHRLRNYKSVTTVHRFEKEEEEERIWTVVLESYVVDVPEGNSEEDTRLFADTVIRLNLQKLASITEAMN
| Variant | relative binding score |
| --- | --- |
| V121I | 60.2% |
| I133K | 70% |
| R46F | -22% |
| T154S | 9.74% |
| Q167H | 55.1% |
| F56K | -2.19% |
| R24Q | 86.4% |
| M176K | 68.4% |
| R111W | -2.45% |
| K168S | 82.2% |
| G23D | 61.7% |
| Q7L | 69% |
| I162D | -8.95% |
| R32T | 73.3% |
| M176E | 57.9% |
| T106R | 17.1% |

Block 2 — method: RNAcompete; form: RNA; matrix: in vitro; concentration: 20 nM; setting: 7-mer, probes averaged, single round; relative to: mean of 7-mers; reading: higher = stronger binding
Target: PABPC1L2, full length, GST fusion (mouse, UniProt A0ABA7IW68)
Residues (chain): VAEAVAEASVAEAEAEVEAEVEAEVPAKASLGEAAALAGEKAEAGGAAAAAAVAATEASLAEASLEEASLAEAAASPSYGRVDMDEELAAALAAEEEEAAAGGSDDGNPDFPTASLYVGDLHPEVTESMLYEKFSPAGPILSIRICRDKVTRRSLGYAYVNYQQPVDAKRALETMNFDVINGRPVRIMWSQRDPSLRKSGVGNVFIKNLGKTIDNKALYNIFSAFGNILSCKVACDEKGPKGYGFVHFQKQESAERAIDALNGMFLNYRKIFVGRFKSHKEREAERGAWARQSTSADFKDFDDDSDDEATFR
| Sequence | 7-mer Z-score |
| --- | --- |
| UCAUAAG | -0.126 |
| UGUUUAA | -0.166 |
| AAAGGGA | 1.07 |
| UUUAAAU | 0.552 |
| AUGGUGU | -0.208 |
| CCAAAAA | 28 |
| GUUAUCU | -0.204 |
| UUCCGCA | -0.293 |
| AAGUCCG | -0.0301 |
| CGCAGGC | 0.0152 |
| AGCAAAU | 0.149 |
| GAGGUGA | 0.211 |
| CUUGUGU | -0.373 |
| AACAAGG | 0.972 |
| AGGUCGU | -0.347 |
| GCAAUCA | 0.233 |
| CCAUUGU | -0.311 |
| CAGUACG | -0.108 |
| GGUGUAC | -0.132 |

Block 3 — method: competition protein-binding microarray; form: double-stranded DNA, one strand shown; matrix: in vitro; concentration: 2 µM; with: Pho4 competitor, 0.05 µM; reading: higher = stronger binding
Target: Centromere-binding protein 1, full length, His-tagged (CBF1, Saccharomyces cerevisiae, UniProt P17106, residues 1-351)
Sequence of UniProt P17106 (whole entry, looked up): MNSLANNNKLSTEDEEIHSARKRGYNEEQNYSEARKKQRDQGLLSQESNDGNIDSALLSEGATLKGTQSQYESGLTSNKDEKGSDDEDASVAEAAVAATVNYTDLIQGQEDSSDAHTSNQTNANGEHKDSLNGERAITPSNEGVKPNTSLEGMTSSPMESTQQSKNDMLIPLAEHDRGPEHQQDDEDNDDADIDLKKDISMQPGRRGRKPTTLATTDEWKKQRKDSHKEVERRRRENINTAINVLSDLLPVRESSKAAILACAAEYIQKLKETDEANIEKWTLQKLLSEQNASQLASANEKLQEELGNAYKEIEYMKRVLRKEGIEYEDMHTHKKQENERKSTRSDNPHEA
Setting: whole 60-bp probe, lowest competitor level
| Sequence | fluorescence intensity [a.u.] |
| --- | --- |
| CTACGCCGCTATTACTACGTGCTTTTTCTTTTGATTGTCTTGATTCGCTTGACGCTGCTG | 85.9 |
| CAGGATTTTCCAGTTCGCGTGGTCGTCATAGTTGGGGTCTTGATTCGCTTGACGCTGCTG | 86.1 |
| ATGTCGAAGCCGGTGCAGGTGATAGTGCTGCTTACAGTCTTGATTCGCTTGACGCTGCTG | 99.8 |
| CATACCCAACCTTGTCACTGTACTTAAGATATTTGTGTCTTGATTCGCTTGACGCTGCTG | 68.8 |
| TTAAGCGACCTCCTGCCCGTGAGAGAATCAAGTAAGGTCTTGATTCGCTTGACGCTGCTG | 75.1 |
| GTCTTGTCTCATTGTATTGTGGGTGTCCCCACTTCAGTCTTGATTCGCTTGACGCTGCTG | 93.8 |
| AATGCCAGATTCGTTTTCGTGACAAACTTTAGCATAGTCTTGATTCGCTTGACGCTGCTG | 80.9 |
| AAAGCGGTAATTTGTCACTACACTTCACATATCTATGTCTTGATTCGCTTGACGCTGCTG | 98.6 |
| GCACAATTTTATGACCGCGTGTTTTCGAATTTTGACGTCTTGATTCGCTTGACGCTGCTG | 179 |
| CTTTCCCGATCTTTTCACGTGCCGTTAGCACATTTGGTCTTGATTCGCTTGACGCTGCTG | 746 |
| TCACTCATTCTAAAACCCGTGATGGCGCATCATACTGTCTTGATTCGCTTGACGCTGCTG | 280 |
| AAATTACTAAGTTGTACAGTGGGTGACGCCGTATGAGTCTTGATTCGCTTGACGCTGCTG | 88.3 |
| AAAAATGGTGGAAAGTGCGTGCGGATTTCTCGAGCCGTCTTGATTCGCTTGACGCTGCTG | 70.9 |
| TTTCAGGCAAGCTGGCAGGTGACGCTCCGCACCTTCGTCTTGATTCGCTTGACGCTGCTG | 84.9 |
| CTAAAGATGACCGGATTCGTGATGGGGCTAGACACAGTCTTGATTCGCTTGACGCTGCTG | 64 |
| ATACTGTTGTATTTCCGCGTGAAGCCACTTTTAACCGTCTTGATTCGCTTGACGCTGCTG | 105 |
| GAGCTACTTTTTCAACACGTGCATCCAACTTGTAGCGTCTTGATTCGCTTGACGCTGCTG | 1770 |
| CAGAAGCCGCGATTTCACATGCCGGCCATTATGGCAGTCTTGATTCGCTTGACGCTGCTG | 60.5 |
| CTAACGAAGGTTTGTATTGTGGGTGACAAGCCAAGTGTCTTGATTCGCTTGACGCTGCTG | 70.8 |
| CGGTGGAGTATTTCACACGTTATGTCGCTGGTTTGCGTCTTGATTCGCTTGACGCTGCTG | 85.1 |
| TTGGGAAATATTCCTCACGTGGAATTTTTTGAGCGCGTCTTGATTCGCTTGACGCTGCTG | 1500 |
| TAACAGCAATTGCACCACATGCAAGTCTCATATGCAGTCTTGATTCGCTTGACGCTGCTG | 102 |
| AGTTCAACAAAACCAAACATGACAATACCACTTATGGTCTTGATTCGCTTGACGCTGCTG | 79.8 |
| CCGAATGATAGCGTCAGCGTGCAAACTGTGAACGCAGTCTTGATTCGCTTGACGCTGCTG | 94 |
| CGTCCTAGTGATTTTCACGTGGCATCCATGAGGAAGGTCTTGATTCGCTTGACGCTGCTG | 640 |

Block 4 — method: protein binding microarray; form: double-stranded DNA, one strand shown; matrix: in vitro; concentration: not given; relative to: not given; reading: higher = stronger binding
Target: Histone acetyltransferase KAT6A, winged helix 2, GST fusion (KAT6A, Homo sapiens, UniProt Q92794, residues 85-181)
Setting: 8-mer, flanks averaged, mean of 2 arrays, mostly near background
Residues (chain): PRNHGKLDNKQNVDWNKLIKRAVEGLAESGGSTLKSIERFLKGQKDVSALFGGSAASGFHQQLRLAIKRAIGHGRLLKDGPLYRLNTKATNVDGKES
| Sequence | E-score |
| --- | --- |
| ACACGCTA | -0.118 |
| AGGGGAAG | -0.0279 |
| ACGTTGAC | -0.156 |
| GACGCTGC | -0.0304 |
| ACGGGTAC | -0.138 |
| CCCAATAG | -0.138 |
| GACGTTAA | -0.176 |
| ACACGATG | -0.125 |
| AGGGATCA | -0.102 |
| CGTTAACC | -0.0759 |
| AACCGCTG | -0.168 |
| GCTACTGA | 0.047 |
| CTATCCGA | -0.207 |
| AGTACAAT | -0.0609 |
| CGGGCTAA | 0.0593 |
| TAACTGCA | -0.0675 |
| GTGGGAGA | 0.00536 |
| GCAGATAC | -0.026 |
| CTATCGAG | 0.0406 |
| GGATCTAC | -0.078 |
| CATGCGTC | 0.00713 |
| ATTTACGC | -0.0836 |
| CCGTCATA | -0.014 |
| CATTGATA | -0.0149 |
| ACACCTCA | -0.165 |

Further values, each from its own experiment — CCNE1: CCNE1, cyclin fold, Cln2 fusion (human)
P1: CDAN1 docking peptide (human); RGARSQLFPPTEA
| Substance | target or system | test | test system | setting | how to read | quantity | result |
| --- | --- | --- | --- | --- | --- | --- | --- |
| P1 P10A | CCNE1 | yeast growth competition, sequencing | yeast | weak parent motif | relative to: not given, higher = stronger binding | normalised enrichment score | 0.312 |
| PKRAKRKLYTSEISSP | Saccharomyces cerevisiae | binding, yeast competitive growth sequencing | peptide, cyclin D2-Cln2 fusion strain | peptide tiling library | direction not given | enrichment score | -0.596 |
| P1 G2A | CCNE1 | yeast growth competition, sequencing | yeast | weak parent motif | relative to: not given, higher = stronger binding | normalised enrichment score | -0.119 |
| P1 R4A | CCNE1 | yeast growth competition, sequencing | yeast | weak parent motif | relative to: not given, higher = stronger binding | normalised enrichment score | -0.0533 |

Some of these lines once more (block 2):
| Sequence | 7-mer Z-score |
| --- | --- |
| CCAAAAA | 28 |
| GUUAUCU | -0.204 |
| UUCCGCA | -0.293 |
| AAGUCCG | -0.0301 |
| CGCAGGC | 0.0152 |
| AGCAAAU | 0.149 |
| GAGGUGA | 0.211 |
| CUUGUGU | -0.373 |
| AACAAGG | 0.972 |
| AGGUCGU | -0.347 |
